# Results pooled from the literature.
# Each numbered part is a random draw from the data of one study; scales do not carry over between parts.

# Set 1 — method: Sort-seq; item: YFP reporter; medium: E. coli; notes: PhoQ-PhoP variant library; together with: 10 µM Mg2+; reference: high Mg2+ state; reading: higher = stronger signaling
# Substance: PhoQ, residues 284 288 289 292 302 303 QWGLFV
target,fold induction
"PhoP, residues 12 14 15 18 19 HHYTI (Escherichia coli, UniProt P23836)",8.66
"PhoP, residues 12 14 15 18 19 AYFRS (Escherichia coli, UniProt P23836)",3.16
"PhoP, residues 12 14 15 18 19 SFCSL (Escherichia coli, UniProt P23836)",15.9

# Set 2 — method: protein-binding microarray; form: double-stranded DNA, one strand shown; medium: in vitro; concentration: not given; reading: higher = stronger binding
# Target: Protein C-ets-1 (ETS1, Homo sapiens, UniProt P14921, residues 1-441, full length assumed)
# Chain of UniProt P14921 (whole entry, looked up): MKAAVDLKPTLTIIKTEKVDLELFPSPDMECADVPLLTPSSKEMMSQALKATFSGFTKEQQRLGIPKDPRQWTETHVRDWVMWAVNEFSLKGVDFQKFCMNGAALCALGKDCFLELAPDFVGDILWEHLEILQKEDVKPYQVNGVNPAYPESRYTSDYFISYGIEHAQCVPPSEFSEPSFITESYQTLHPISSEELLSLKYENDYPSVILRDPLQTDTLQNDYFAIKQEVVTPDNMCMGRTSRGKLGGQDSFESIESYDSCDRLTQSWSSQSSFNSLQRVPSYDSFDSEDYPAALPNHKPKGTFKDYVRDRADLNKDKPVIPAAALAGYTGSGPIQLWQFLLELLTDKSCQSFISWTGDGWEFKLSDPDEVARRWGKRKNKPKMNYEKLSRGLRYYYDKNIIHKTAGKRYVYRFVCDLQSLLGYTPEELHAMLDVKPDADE
# Notes: k-mer, scored over probes, only values ≥0.25
Oligonucleotide,E-score
CGGAAGCC,0.47
ACTCATCC,0.251
CACTACCG,0.289
GCATCCGA,0.405
GGAAGACC,0.259
AGTGCCGG,0.263
ATCCGCAG,0.291

# Set 3 — method: protein binding microarray; form: double-stranded DNA, one strand shown; medium: in vitro; concentration: not given; reference: not given; reading: higher = stronger binding
# Target: Histone acetyltransferase KAT6A, winged helix 1, GST fusion (KAT6A, Homo sapiens, UniProt Q92794, residues 1-85)
# Notes: 8-mer, flanks averaged, mean of 2 arrays, mostly near background
# Construct (chain): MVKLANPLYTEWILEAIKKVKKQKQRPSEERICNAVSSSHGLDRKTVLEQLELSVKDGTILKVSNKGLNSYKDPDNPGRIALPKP
Oligonucleotide,E-score
AACTACTG,-0.0541
GAAATTCA,-0.109
ATATTAGC,0.0293
CAGTTTCA,-0.0415
ACCGAAAT,-0.0272

# Set 4 — method: competition protein-binding microarray; form: double-stranded DNA, one strand shown; medium: in vitro; concentration: 2 µM; together with: Pho4 competitor, 0.05 µM; reading: higher = stronger binding; shared flanks, not repeated: … GTCTTGATTCGCTTGACGCTGCTG
# Target: Centromere-binding protein 1, full length, His-tagged (CBF1, Saccharomyces cerevisiae, UniProt P17106, residues 1-351)
# Chain of UniProt P17106 (whole entry, looked up): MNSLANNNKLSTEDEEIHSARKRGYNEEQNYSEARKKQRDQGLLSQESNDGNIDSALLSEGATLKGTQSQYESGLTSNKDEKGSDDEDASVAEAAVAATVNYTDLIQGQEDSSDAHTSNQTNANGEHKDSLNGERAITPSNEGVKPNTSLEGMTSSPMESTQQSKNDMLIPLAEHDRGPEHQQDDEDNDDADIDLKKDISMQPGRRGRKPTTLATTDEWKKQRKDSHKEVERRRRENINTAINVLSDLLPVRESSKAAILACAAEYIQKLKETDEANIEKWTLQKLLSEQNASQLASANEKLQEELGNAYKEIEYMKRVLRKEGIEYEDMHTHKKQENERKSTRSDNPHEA
# Notes: whole 60-bp probe, lowest competitor level
Oligonucleotide,fluorescence intensity [a.u.]
GTACTGCATCTTATTCCCGTGCCAGGGTCTCTGGGT,88.8
TCGATGGCCATGTTACACATGGACATAAGTGCTTCC,85
TGCGTAAAAAAAAGACACATGTGAGACGCAGGAAAA,187
ATCGTTCAATTTATCTTCGGCATTTTTCTGAATTTT,82.7
TTAGGTGTCTGGCTCAGCGTGAGAAGATCTTAGAAG,76
AAATTACTAAGTTGTCACACAACTTACCCCGTATGA,86.5

# Repeated from above (set 2):
Oligonucleotide,E-score
AGTGCCGG,0.263
CGGAAGCC,0.47
GCATCCGA,0.405
